Assay results gathered from unrelated publications.
“And” joins repeats or separate records; there may be more than shown. ± marks the error that the study gave.
PYR1: Abscisic acid receptor PYR1 (PYR1, Arabidopsis thaliana, UniProt O49686)
UniProt O49686, sequence (whole entry, looked up): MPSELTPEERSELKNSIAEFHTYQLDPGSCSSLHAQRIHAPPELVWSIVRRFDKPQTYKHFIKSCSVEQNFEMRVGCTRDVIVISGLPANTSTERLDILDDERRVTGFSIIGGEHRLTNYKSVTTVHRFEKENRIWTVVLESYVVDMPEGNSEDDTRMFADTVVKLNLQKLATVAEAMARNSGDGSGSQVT
GABA-A receptor; alpha-5/beta-3/gamma-2: GABA-A receptor; alpha-5/beta-3/gamma-2 (Homo sapiens, UniProt P18507+P28472+P31644)
UniProt P28472, sequence (whole entry, looked up): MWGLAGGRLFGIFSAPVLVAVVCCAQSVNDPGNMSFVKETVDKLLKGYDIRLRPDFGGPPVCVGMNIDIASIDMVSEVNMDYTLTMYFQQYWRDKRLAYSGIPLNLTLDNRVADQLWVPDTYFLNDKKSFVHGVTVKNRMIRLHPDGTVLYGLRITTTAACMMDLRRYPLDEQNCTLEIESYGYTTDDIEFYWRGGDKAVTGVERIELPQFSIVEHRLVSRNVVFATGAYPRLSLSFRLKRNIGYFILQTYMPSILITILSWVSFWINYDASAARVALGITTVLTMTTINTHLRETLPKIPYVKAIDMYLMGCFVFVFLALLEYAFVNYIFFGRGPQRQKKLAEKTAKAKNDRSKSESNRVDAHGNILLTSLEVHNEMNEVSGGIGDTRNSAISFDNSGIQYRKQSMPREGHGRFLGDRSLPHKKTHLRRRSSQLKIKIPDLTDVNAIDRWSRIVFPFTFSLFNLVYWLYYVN
UniProt P31644, sequence (whole entry, looked up): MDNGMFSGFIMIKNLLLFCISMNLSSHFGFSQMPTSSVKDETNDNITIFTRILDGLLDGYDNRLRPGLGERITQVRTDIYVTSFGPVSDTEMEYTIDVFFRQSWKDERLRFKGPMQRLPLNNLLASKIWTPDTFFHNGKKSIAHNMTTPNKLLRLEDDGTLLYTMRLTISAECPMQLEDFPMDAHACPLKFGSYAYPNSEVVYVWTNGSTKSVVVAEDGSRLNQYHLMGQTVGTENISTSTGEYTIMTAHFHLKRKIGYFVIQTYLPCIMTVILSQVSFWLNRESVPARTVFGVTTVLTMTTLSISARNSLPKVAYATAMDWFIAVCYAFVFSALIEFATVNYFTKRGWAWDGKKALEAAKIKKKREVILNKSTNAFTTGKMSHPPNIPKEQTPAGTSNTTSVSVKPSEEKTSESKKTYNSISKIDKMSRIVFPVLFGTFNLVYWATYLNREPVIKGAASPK
UniProt P18507, sequence (whole entry, looked up): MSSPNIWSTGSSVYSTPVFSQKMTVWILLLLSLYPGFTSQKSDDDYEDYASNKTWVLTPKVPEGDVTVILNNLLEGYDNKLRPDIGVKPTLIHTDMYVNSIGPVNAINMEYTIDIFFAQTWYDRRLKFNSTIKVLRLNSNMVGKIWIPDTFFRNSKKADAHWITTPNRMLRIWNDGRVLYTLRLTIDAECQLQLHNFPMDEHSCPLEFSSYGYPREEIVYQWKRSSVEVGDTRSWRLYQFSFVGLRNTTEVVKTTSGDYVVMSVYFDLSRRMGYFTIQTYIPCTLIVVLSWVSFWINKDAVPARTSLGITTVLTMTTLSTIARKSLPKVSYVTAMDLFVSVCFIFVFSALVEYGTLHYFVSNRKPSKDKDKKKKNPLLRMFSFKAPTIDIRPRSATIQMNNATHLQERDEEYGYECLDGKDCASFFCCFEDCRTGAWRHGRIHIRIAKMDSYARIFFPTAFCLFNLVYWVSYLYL
CGAS catalytic domain; with DNA: Cyclic GMP-AMP synthase, catalytic domain; with DNA (CGAS, Homo sapiens, UniProt Q8N884)
UniProt Q8N884, sequence (whole entry, looked up): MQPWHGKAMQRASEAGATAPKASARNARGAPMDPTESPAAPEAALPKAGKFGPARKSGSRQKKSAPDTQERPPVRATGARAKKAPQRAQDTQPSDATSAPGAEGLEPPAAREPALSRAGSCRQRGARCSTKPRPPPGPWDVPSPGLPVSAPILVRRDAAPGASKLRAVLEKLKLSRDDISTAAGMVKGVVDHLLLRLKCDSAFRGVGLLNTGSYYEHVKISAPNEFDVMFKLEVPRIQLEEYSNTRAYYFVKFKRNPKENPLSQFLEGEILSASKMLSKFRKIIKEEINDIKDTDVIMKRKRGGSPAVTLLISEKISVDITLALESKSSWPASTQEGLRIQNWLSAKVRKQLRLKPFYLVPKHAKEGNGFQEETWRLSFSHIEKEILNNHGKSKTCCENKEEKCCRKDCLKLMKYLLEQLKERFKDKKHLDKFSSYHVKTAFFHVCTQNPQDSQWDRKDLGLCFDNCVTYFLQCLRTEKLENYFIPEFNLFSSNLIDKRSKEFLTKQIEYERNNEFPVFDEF
OPRK1: Kappa-type opioid receptor (OPRK1, Homo sapiens, UniProt P41145)
UniProt P41145, sequence (whole entry, looked up): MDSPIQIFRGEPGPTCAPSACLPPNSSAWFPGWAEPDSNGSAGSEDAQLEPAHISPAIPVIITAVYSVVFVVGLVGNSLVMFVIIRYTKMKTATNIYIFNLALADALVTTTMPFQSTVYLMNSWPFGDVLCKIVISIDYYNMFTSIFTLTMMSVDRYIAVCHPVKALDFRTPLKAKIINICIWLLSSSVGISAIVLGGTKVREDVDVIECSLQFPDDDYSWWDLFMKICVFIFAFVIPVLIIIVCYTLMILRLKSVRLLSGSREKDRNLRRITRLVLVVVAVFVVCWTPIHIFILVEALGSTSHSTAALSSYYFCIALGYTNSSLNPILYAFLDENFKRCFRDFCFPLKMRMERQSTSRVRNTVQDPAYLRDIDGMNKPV
UniProt P34995, sequence (whole entry, unmodified, looked up): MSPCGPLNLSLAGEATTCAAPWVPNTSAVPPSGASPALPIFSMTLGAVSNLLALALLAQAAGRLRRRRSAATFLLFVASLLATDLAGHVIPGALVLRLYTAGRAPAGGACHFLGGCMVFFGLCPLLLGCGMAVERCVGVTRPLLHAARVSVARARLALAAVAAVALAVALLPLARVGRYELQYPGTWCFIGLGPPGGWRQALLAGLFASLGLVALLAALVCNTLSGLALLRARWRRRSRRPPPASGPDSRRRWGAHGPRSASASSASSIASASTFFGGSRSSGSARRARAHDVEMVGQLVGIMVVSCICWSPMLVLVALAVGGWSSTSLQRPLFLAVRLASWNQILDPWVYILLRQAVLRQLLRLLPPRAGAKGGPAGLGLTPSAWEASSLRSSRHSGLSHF
UniProt Q9NQG6, sequence (whole entry, looked up): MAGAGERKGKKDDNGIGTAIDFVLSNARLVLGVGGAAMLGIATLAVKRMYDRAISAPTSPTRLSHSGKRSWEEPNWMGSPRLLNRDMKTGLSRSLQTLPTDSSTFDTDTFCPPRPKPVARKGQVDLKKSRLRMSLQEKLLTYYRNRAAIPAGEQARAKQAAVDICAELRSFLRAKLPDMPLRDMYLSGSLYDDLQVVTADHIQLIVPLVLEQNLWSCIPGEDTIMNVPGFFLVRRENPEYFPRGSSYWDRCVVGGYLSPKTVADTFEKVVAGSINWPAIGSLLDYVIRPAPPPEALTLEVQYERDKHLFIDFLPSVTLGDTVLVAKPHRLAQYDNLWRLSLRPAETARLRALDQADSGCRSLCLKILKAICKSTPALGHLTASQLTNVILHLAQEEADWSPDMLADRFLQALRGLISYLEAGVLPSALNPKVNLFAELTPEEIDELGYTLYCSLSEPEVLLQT
UniProt P14416, sequence (whole entry, looked up): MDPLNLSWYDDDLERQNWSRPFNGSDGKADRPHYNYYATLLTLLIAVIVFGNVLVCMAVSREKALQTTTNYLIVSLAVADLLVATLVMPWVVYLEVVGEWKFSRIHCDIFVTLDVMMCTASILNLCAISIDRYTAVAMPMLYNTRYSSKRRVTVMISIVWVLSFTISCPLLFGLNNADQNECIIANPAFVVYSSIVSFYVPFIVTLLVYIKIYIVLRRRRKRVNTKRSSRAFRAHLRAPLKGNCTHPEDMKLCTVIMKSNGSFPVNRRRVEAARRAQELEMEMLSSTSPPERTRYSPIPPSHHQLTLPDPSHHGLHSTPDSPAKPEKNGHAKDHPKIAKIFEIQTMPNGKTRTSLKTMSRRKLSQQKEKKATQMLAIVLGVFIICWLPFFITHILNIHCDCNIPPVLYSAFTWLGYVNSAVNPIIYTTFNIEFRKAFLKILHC
UniProt Q14833, sequence (whole entry, looked up): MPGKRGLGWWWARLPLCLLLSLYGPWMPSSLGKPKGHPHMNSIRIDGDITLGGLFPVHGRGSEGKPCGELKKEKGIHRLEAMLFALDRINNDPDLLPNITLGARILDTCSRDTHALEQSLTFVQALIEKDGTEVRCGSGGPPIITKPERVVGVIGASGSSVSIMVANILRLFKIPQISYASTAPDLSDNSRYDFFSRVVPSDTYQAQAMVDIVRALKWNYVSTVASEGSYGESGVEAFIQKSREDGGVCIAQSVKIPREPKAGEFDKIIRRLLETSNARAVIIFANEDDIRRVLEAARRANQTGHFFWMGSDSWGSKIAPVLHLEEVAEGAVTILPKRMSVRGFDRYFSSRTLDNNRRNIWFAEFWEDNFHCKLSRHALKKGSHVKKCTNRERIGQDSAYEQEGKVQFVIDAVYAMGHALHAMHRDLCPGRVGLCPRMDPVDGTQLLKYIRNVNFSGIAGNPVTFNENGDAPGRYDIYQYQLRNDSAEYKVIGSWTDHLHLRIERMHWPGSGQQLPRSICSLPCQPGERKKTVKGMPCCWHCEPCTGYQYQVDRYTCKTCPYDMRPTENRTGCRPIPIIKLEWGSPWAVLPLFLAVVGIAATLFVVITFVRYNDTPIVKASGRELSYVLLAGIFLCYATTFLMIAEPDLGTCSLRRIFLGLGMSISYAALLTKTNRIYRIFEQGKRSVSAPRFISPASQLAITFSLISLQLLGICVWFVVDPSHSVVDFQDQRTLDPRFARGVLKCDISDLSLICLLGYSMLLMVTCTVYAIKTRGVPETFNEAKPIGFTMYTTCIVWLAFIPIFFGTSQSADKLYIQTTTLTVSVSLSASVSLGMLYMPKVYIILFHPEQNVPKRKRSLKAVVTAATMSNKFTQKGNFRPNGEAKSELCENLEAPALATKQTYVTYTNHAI

CCCCC[C@H](O)/C=C/[C@H]1[C@H](O)CC(=O)[C@@H]1C/C=C\CCCC(=O)O  EC50 (PTGER1 (Homo sapiens, UniProt P34995, S306A); IP1 accumulation, agonist; AD293; EP1 S306A mutant): 0.00399 µM
Nc1nc2c(ncn2[C@@H]2O[C@@H]3COP(=O)(O)O[C@H]3[C@H]2O)c(=O)[nH]1  EC50 (Cone cGMP-gated channel (Morone saxatilis, UniProt Q3I0N1+Q3I0N2); channel current, agonist, suction electrode; Morone saxatilis, cone outer segments; added: 5 µM Ca2+): 312 ± 84.7 µM
Cc1ccc(C(=O)NCc2cn(-c3c(C4CC4)cc(CC(=O)NC4(C(=O)O)CCCCC4)cc3C3CC3)nn2)o1  EC50 (PYR1; phosphatase activity recovery, antagonist; added: HAB1, ABA 5000 nM): 0.485 ± 0.065 µM
Cc1nn2c(N3CCN(CCO)CC3)cc(-c3ccccc3)nc2c1-c1ccccc1  EC50 (GTPase KRas (KRAS, Homo sapiens, UniProt P01116); intrinsic nucleotide exchange): 3.1 ± 1.2 µM
O=C(O)C1=CCNCC1  EC50 (GABA-A receptor; alpha-5/beta-3/gamma-2; chloride current, agonist, electrophysiology; HEK293 expressing GABAA α5β3γ2): 9.8 µM
CCOCc1nc(O)c(-c2nnc(Cc3ccc(Cl)cn3)o2)c(O)c1-c1c(OC)cccc1OC  EC50 (Apelin receptor (APLNR, Homo sapiens, UniProt P35414); Gαi3 activation, agonist, BRET biosensor; HEK293): 0.00046 ± 3e-05 µM
COc1cc(NC(=O)c2occc2C)ccc1/N=N/c1ccccc1Cl  EC50 (GRM4 (Homo sapiens, UniProt Q14833); activator): > 31.6 µM
CCCCCCCCCCCCCCCC(=O)SCCNC(=O)CCNC(=O)C(O)C(C)(C)COP(=O)(O)OP(=O)(O)OCC1OC(n2cnc3c(N)ncnc32)C(O)C1OP(=O)(O)O (stereo not drawn)  EC50 (Mitochondrial dynamics protein MIEF1 (MIEF1, Homo sapiens, UniProt Q9NQG6); MANT-ADP fluorescence decrease, MANT-ADP competition; target 1 µM, added: MANT-ADP 300 nM): 2 µM
CCn1c(-c2nc3cc(C(=O)N4CCC[C@@H](N)C4)cc(OC)c3n2C)cc2cccnc21  EC50 (ADORA2A (Homo sapiens, UniProt P29274); agonist, TR-FRET): > 31.6 µM
O=C(Cc1cc(C2CC2)c(-n2cc(CNC(=O)c3cc(Br)co3)nn2)c(C2CC2)c1)NC1(C(=O)O)CCCCC1  EC50 (PYR1; phosphatase activity recovery, antagonist; added: HAB1, ABA 5000 nM): 0.157 ± 0.032 µM
Cc1nn(-c2nc3c(F)cc(F)cc3s2)c(O)c1C(c1ccccc1C(F)(F)F)c1c(C)nn(-c2nc3c(F)cc(F)cc3s2)c1O  EC50 (CGAS catalytic domain; with DNA; cGAS-DNA condensate disruption; concentration not given, added: Cy3-labelled DNA): 3.2 ± 1.2 µM
COc1cc2c(cc1OC)C(=O)N(CCCCN1CCN(c3ccccc3OC)CC1)C2  EC50 (DRD2 (Homo sapiens, UniProt P14416); agonist): 0.2 µM
CCn1c(-c2nc3ccc(C(=O)N4CCCC(N)C4)cc3n2C)cc2ccccc21 (stereo not drawn)  EC50 (OPRK1; G protein activation, agonist, GTPγS binding): > 100 µM
O=C(Cc1cc(C2CC2)c(-n2cc(CNC(=O)c3ccc4ccccc4c3)nn2)c(C2CC2)c1)NC1(C(=O)O)CCCCC1  EC50 (PYR1; phosphatase activity recovery, antagonist; added: HAB1, ABA 5000 nM): 0.586 ± 0.104 µM
COC(=O)C1=C2Nc3ccccc3[C@@]23CCN2C[C@@](O)(C(C)=O)[C@@H]1C[C@H]23  EC50 (OPRK1; cAMP inhibition, agonist, HitHunter; CHO-K1; added: forskolin): > 10 µM
O=C(Cc1cc(C2CC2)c(-n2cc(CNC(=O)c3ccc(Cl)s3)nn2)c(C2CC2)c1)NC1(C(=O)O)CCCCC1  EC50 (PYR1; phosphatase activity recovery, antagonist; added: HAB1, ABA 5000 nM): 0.137 ± 0.015 µM
O=C(Nc1ccn(Cc2ccc(O)cc2C(F)(F)F)n1)c1c(F)cccc1F  EC50 (TRPV4 (Homo sapiens, UniProt Q9HBA0); ion channel activity, agonist; cells overexpressing TRPV4; human receptor): > 10 µM
O=C(Cc1cc(C2CC2)c(-n2cc(CNC(=O)c3ccc(Br)o3)nn2)c(C2CC2)c1)NC1(C(=O)O)CCCCC1  EC50 (PYR1; phosphatase activity recovery, antagonist; added: HAB1, ABA 5000 nM): 0.2 ± 0.026 µM
O=S(=O)(O)C1CCNCC1  EC50 (GABA-A receptor; alpha-5/beta-3/gamma-2; chloride current, agonist, electrophysiology; HEK293 expressing GABAA α5β3γ2): 10 µM
Cc1nn(-c2nc3c(F)cc(F)cc3s2)c(O)c1C(c1cccc(C(F)(F)F)c1)c1c(C)nn(-c2nc3c(F)cc(F)cc3s2)c1O  EC50 (CGAS catalytic domain; with DNA; cGAS phase separation, inhibitor): 4.41 µM and 4.9 µM
O=C(Cc1cc(C2CC2)c(-n2cc(CNC(=O)c3cnc4ccccc4n3)nn2)c(C2CC2)c1)NC1(C(=O)O)CCCCC1  EC50 (PYR1; phosphatase activity recovery, antagonist; added: HAB1, ABA 5000 nM): 0.144 ± 0.015 µM

Some of these lines once more:
Cc1ccc(C(=O)NCc2cn(-c3c(C4CC4)cc(CC(=O)NC4(C(=O)O)CCCCC4)cc3C3CC3)nn2)o1  EC50 (PYR1; phosphatase activity recovery, antagonist; added: HAB1, ABA 5000 nM): 0.485 ± 0.065 µM
CCn1c(-c2nc3ccc(C(=O)N4CCCC(N)C4)cc3n2C)cc2ccccc21 (stereo not drawn)  EC50 (OPRK1; G protein activation, agonist, GTPγS binding): > 100 µM
Cc1nn(-c2nc3c(F)cc(F)cc3s2)c(O)c1C(c1cccc(C(F)(F)F)c1)c1c(C)nn(-c2nc3c(F)cc(F)cc3s2)c1O  EC50 (CGAS catalytic domain; with DNA; cGAS phase separation, inhibitor): 4.41 µM and 4.9 µM
CCn1c(-c2nc3cc(C(=O)N4CCC[C@@H](N)C4)cc(OC)c3n2C)cc2cccnc21  EC50 (ADORA2A (Homo sapiens, UniProt P29274); agonist, TR-FRET): > 31.6 µM
